Experimental data pooled from the literature.
Protocols differ between the studies behind these lines. ± marks the error that the study gave.

CC[C@H](C)[C@H](NC(=O)[C@H](CC(C)C)NC(=O)[C@H](Cc1c[nH]c2ccccc12)NC(=O)[C@H](CCC(N)=O)NC(=O)[C@@H](NC(=O)[C@H](Cc1ccccc1)NC(=O)[C@H](C)NC(=O)[C@H](CCCCNC(=O)COCCOCCNC(=O)COCCOCCNC(=O)CC[C@H](NC(=O)CCCCCCCCCCCCCCCCCCC(=O)O)C(=O)O)NC(=O)[C@H](CCC(N)=O)NC(=O)[C@H](C)NC(=O)[C@@H](NC(=O)[C@H](CCCCN)NC(=O)[C@H](CC(=O)O)NC(=O)[C@H](CC(C)C)NC(=O)C(C)(C)NC(=O)[C@@H](NC(=O)[C@H](CO)NC(=O)[C@H](Cc1ccc(O)cc1)NC(=O)[C@H](CC(=O)O)NC(=O)[C@H](CO)NC(=O)[C@@H](NC(=O)[C@H](Cc1ccccc1)NC(=O)[C@@H](NC(=O)CNC(=O)[C@H](CCC(=O)O)NC(=O)C(C)(C)NC(=O)[C@@H](N)Cc1ccc(O)cc1)[C@@H](C)O)[C@@H](C)O)[C@@H](C)CC)[C@@H](C)CC)C(C)C)C(=O)N[C@@H](C)C(=O)NCC(=O)NCC(=O)N1CCC[C@H]1C(=O)N[C@@H](CO)C(=O)N[C@@H](CO)C(=O)NCC(=O)N[C@@H](C)C(=O)N1CCC[C@H]1C(=O)N1CCC[C@H]1C(=O)N1CCC[C@H]1C(=O)N[C@@H](CO)C(N)=O
serum ALT (healthy subjects, single ascending dose; 0.5 mg, day 29): 21.3 ± 17.6 U/L

CC[C@H](C)[C@H](NC(=O)[C@H](CC(C)C)NC(=O)[C@H](CO)NC(=O)[C@H](Cc1c[nH]cn1)NC(=O)[C@@H](NC(=O)[C@H](CC(C)C)NC(=O)[C@H](CO)NC(=O)[C@@H](NC(=O)[C@H](Cc1ccc(O)cc1)NC(=O)[C@H](CC(N)=O)NC(=O)[C@H](CC(N)=O)NC(=O)[C@@H](NC(=O)[C@H](CCC(=O)O)NC(=O)[C@H](CCCNC(=N)N)NC(=O)[C@H](CC(=O)O)NC(=O)[C@H](Cc1c[nH]c2ccccc12)NC(=O)[C@H](CCC(=O)O)NC(=O)[C@H](CCSC)NC(=O)[C@H](Cc1c[nH]c2ccccc12)NC(C)=O)[C@@H](C)CC)[C@@H](C)O)[C@@H](C)CC)C(=O)N[C@@H](CCC(=O)O)C(=O)N[C@@H](CCC(=O)O)C(=O)N[C@@H](CO)C(=O)N[C@@H](CCC(N)=O)C(=O)N[C@@H](CC(N)=O)C(=O)N[C@@H](CCC(N)=O)C(=O)N[C@@H](CCC(N)=O)C(=O)N[C@@H](CCC(=O)O)C(=O)N[C@@H](CCCCN)C(=O)N[C@@H](CC(N)=O)C(=O)N[C@@H](CCC(=O)O)C(=O)N[C@@H](CCC(N)=O)C(=O)N[C@@H](CCC(=O)O)C(=O)N[C@@H](CC(C)C)C(=O)N[C@@H](CC(C)C)C(=O)NCC(=O)N[C@@H](CO)C(=O)NCC(=O)N[C@@H](CSCC(=O)O[C@H]1CC[C@@]2(C)C(=CC[C@H]3[C@@H]4CC[C@H]([C@H](C)CCCC(C)(C)O)[C@@]4(C)CC[C@@H]32)C1)C(N)=O
partition coefficient (Trp fluorescence; POPC vesicles; 5 µM, pH 7.4, 25 °C): 1540 ± 347

Nc1ncnc2c([C@@H]3N[C@H](CO)[C@@H](O)[C@H]3O)c[nH]c12
inhibition (Lassa mammarenavirus; viral replication; HeLa, Josiah; 3.1 µM): 5.6%

CC(=O)O[C@@H]1[C@H](N)[C@@H](OP(=O)(O)O)[C@@]2(C(=O)O)CS[C@@](O)(C(N)=O)[C@@H]1O2
Kd (DNA-directed RNA polymerase subunit beta' / DNA-directed RNA polymerase subunit beta (rpoC/rpoB, Escherichia coli, UniProt P0A8T7+P0A8V2, M932A); binding to elongation complex, 6-MI fluorescence titration; β′M932A RNAP; riboside RNA 3′-end adenine): 0.65 ± 0.16 µM

O=c1cc(-c2ccc(O)c(O)c2)oc2cc(O)cc(O)c12
Kd (Spike glycoprotein (Severe acute respiratory syndrome coronavirus 2, UniProt P0DTC2); binding, BLI): 97 µM

CC(C)[C@H](N)C(=O)N1CCC[C@H]1B(O)O.CS(=O)(=O)O
inhibition (Replicase polyprotein 1ab, main protease (rep, Severe acute respiratory syndrome coronavirus 2, UniProt P0DTD1); reporter gene (Gaussia luciferase), inhibitor; 20 µM): 0.104%

Cn1cnc(Cn2c(=O)[nH]/c(=N\c3cc4cn(C)nc4cc3Cl)n(Cc3cc(F)c(F)cc3F)c2=O)n1
Cmax (human, severe renal impairment, plasma; oral, 375 mg single dose): 17200 ng/mL

CC(C)(C)[C@H](NC(=O)C(F)(F)F)C(=O)N1C[C@H]2[C@@H]([C@H]1C(=O)N[C@H](C#N)C[C@@H]1CCNC1=O)C2(C)C
CC50 (Calu-3; 48 h): 106 µM
